Experimental data collected from several papers.
Each line is one published result; not all experiments were run side by side. ± marks the error that the study gave.

For `O=C(O)CCCOc1ccc([18F])cc1-c1cc(-c2ccccc2C(F)(F)F)n(-c2ccccc2)n1`, the tissue uptake was 1.76 ± 0.1 %ID/g (mice, small intestine; intravenous, 30 min).
The tissue uptake of `CCCC[C@H](NC(=O)CCCCCCCNC(=O)CN1CCN(CC(=O)O)CCN(CC(=O)O)CC1)C(=O)N[C@H]1CC(=O)NCCCC[C@@H](C(N)=O)NC(=O)[C@H](Cc2c[nH]c3ccccc23)NC(=O)[C@H](CCCNC(=N)N)NC(=O)[C@@H](Cc2ccccc2)NC(=O)[C@H](Cc2c[nH]cn2)NC1=O` [fluorine-18 labelled] is reported as 0.84 ± 0.12 %ID/g (C57 mice B16-F10 melanoma, spleen; intravenous, 0.37 MBq, 0.5 h).
The tissue uptake of `COc1ccc(Nc2nc(Nc3ccc(OCCOCC[18F])cc3)ncc2Br)cc1` is reported as 2.05 ± 0.32 %ID/g (ICR mice, S180 tumour-bearing, brain; intravenous, 370 kBq, 60 min).
The tissue uptake of `COc1ccc2c(c1)C(C)(C)C(/C=C/C1=C(Oc3ccc(C(=O)NCCCCOc4cc(CN(Cc5ccccn5)Cc5ccccn5)cc(CN(Cc5ccccn5)Cc5ccccn5)c4)cc3)C(=C/C=C3/N(CCCCS(=O)(=O)[O-])c4ccc(OC)cc4C3(C)C)CCC1)=[N+]2CCCCS(=O)(=O)[O-].O=[N+]([O-])[O-].O=[N+]([O-])[O-].[99Tc+].[C-]#[O+].[C-]#[O+].[C-]#[O+].[Zn+2]` is reported as 1.26 %ID/g (BALB/c mice, S. aureus myositis, blood; 12 h post-injection).
For `O=C(NCC1OC2CCC=CCCC2O1)c1ccc([18F])nc1` (stereo not drawn), the tissue uptake was 12.1 ± 1.6 %ID/g (healthy female BALB/c nude mice, kidneys; intravenous, 7.4 MBq per mouse, 2 min).
With `COc1ccc(Nc2nc(Nc3ccc(OCCOCCOCC[18F])cc3)ncc2Br)cc1` the tissue uptake was 2.11 ± 0.19 %ID/g (ICR mice, S180 tumour-bearing, spleen; intravenous, 370 kBq, 15 min).
For `Cc1cc(C)n(CCN(CCN)CCCCCCNC(=O)[C@@H](N)Cc2c[nH]c3ccccc23)n1.[99Tc+].[C-]#[O+].[C-]#[O+].[C-]#[O+]`, the tissue uptake was 0.33 ± 0.04 %IA/g (BALB/c nude mice, A549 xenograft, lung; intravenous, 4 h).
For `O=C(NCC1OC2CCC=CCCC2O1)c1ccc(COCCOCCOCC[18F])cc1` (stereo not drawn), the tissue uptake was 1.9 ± 0.8 %ID/g (healthy female BALB/c nude mice, bone; intravenous, 7.4 MBq per mouse, 15 min).
With `Cc1cc(C)n(CCN(CCN)CCCCCCNC(=O)[C@@H](N)Cc2c[nH]cn2)n1.[99Tc+].[C-]#[O+].[C-]#[O+].[C-]#[O+]` the tissue uptake was 21.1 ± 1.96 %IA/g (BALB/c nude mice, A549 xenograft, liver; intravenous, 15 min).
The tissue uptake of `CCCC[C@H](NC(=O)COCCOCCNC(=O)CN1CCN(CC(=O)O)CCN(CC(=O)O)CC1)C(=O)N[C@H]1CC(=O)NCCCC[C@@H](C(N)=O)NC(=O)[C@H](Cc2c[nH]c3ccccc23)NC(=O)[C@H](CCCNC(=N)N)NC(=O)[C@@H](Cc2ccccc2)NC(=O)[C@H](Cc2c[nH]cn2)NC1=O` [fluorine-18 labelled] is reported as 0.56 ± 1.11 %ID/g (C57 mice B16-F10 melanoma, pancreas; intravenous, 0.37 MBq, 2 h).
With `CC(C)C[C@H](NC(=O)[C@@H](CCCCNC(=O)[C@@H](Cc1ccccc1)NC(=O)CCCCCCCNC(=O)CN1CCN(CC(=O)O)CCN(CC(=O)O)CCN(CC(=O)O)CC1)NC(=O)[C@H](Cc1ccc(O)cc1)NC(=O)[C@H](CO)NC(=O)[C@H](Cc1c[nH]c2ccccc12)NC(=O)[C@H](Cc1c[nH]cn1)NC(=O)[C@@H]1CCC(=O)N1)C(=O)N[C@@H](CCCNC(=N)N)C(=O)N1CCC[C@H]1C(=O)NCC(N)=O` [indium-111 labelled] the tissue uptake was 1.13 ± 0.36 %ID/g (biodistribution; male athymic nude mice, DU-145 prostate cancer xenograft, tumor; intravenous, 0.037 MBq, 0.5 h post-injection).
The tissue uptake of `N#C[C@@H]1CCCN1C(=O)CNC(=O)c1ccnc2ccc(OCCCN3CCN(C(=O)CCc4ccc5c(c4)CN4CCN(Cc6cc(CCC(=O)O)ccc6O)CC(=O)[O][Al-]([18F])([O]C(=O)C4)[O]5)CC3)cc12` (stereo partly drawn) is reported as 0.61 ± 0.11 %ID/g (BALB/c nude mice, U-87 MG xenograft, heart; 2 h).
`O=C([O-])CN1CCN(CC(=O)[O-])CCN(CC(=O)NC[C@H]2CC[C@H](C(=O)N[C@H](Cc3cnc4ccccc4c3)C(=O)NCCCC[C@H](NC(=O)N[C@@H](CCC(=O)O)C(=O)O)C(=O)O)CC2)CCN(CC(=O)[O-])CC1.[64Cu+2]` gave a tissue uptake of 5.65 %ID/g (ex vivo gamma counting; 22Rv1 tumour-bearing mice, heart; intravenous, 0.74 MBq, 6 h post-injection).
`N#C[C@@H]1CCCN1C(=O)CNC(=O)c1ccnc2ccc(OCCCN3CCN(C(=O)CCc4ccc5c(c4)CN4CCN6CC(=O)[O][68Ga-]([O]C(=O)C4)([O]5)[O]c4ccc(CCC(=O)N5CCN(CCCOc7ccc8nccc(C(=O)NCC(=O)N9CCC[C@H]9C#N)c8c7)CC5)cc4C6)CC3)cc12` gave a tissue uptake of 0.72 ± 0.07 %ID/g (BALB/c nude mice, U-87 MG xenograft, spleen; 1 h).
For `CCCC[C@H](NC(=O)CNC(=O)CNC(=O)[C@H](CCCCNC(=O)[C@H](CC(=O)O)NC(=O)C(C)c1ccc(CC(C)C)cc1)NC(=O)CN1CCN(CC(=O)O)CCN(CC(=O)O)CCN(CC(=O)O)CC1)C(=O)N[C@H]1CC(=O)NCCCC[C@@H](C(N)=O)NC(=O)[C@H](Cc2c[nH]c3ccccc23)NC(=O)[C@H](CCCNC(=N)N)NC(=O)[C@@H](Cc2ccccc2)NC(=O)[C@H](Cc2c[nH]cn2)NC1=O` (stereo partly drawn) [lutetium-177 labelled], the tissue uptake was 0.95 ± 0.05 %ID/g (C57 mice, tumour-bearing, muscle; intravenous, 0.037 MBq, 0.5 h).
